Assay results collected from several papers.
Protocols differ between the studies behind these lines. Values joined by “and” are separate records of one study, mostly repeats; a detail may differ. ± marks the error that the study gave. Values after ≈ are worked out from the molar mass of the structure shown.

Compound | tested on | test | test system | setting | how to read | quantity | value
CN(C)c1cccc(C(=O)NCC2CCN(c3cc(-c4ccc(Cl)cc4)n[nH]3)CC2)c1 | SARS-CoV-2 | cytopathic effect | USA_WA1/2020 | retest, 8-point, duplicates |  | maximum response | 35.9%
COc1ccc([C@H](Cc2ccncc2)c2ccccc2)cc1OC1CCCC1 | SARS-CoV-2 | viral replication, GFP plate reader screen | BetaCov/Belgium/GHB-03021/2020 | cell-based |  | EC50 | > 100 µM
COc1cc2cc(c1)C(=O)NCCCC(=O)N[C@H]1CN(C(=O)c3cccc(-c4ccccc4OC)c3)CC[C@@H]1OCc1cccc(c1)O2 | Lassa mammarenavirus | viral replication | Huh-7 | concentration not given |  | Emax | 49.4%
Cc1c(-c2ccccc2)oc2c(C(=O)OC(C)(C)CN3CCCCC3)cccc2c1=O | SARS-CoV-2 | viral replication, GFP plate reader screen |  | cell-based |  | EC50 | > 100 µM
CC(C)C[C@@H]1NC(=O)CN(C(=O)c2cccn(C)c2=O)CCN(C)C(=O)[C@H](C)NC(=O)CN(C)C(=O)[C@@H](Cc2c[nH]c3ccccc23)NC(=O)c2csc1n2 | Lassa mammarenavirus | viral replication | Huh-7 | 10 µM, 72 h |  | remaining activity | 55%
CC(C)=CCc1c(O)ccc(C(=O)/C=C/c2ccc(O)cc2)c1O | SARS-CoV-2 | cytopathic effect | Vero E6 | 50 µM, replicate run |  | mean inhibition | 33.3%
O=C(NCC(c1cccnc1)N1CCOCC1)c1n[nH]c2c1CCCC2 (stereo not drawn) | Lassa mammarenavirus | viral replication | Huh-7 | 10 µM, 72 h |  | remaining activity | 38%
NCCCCCc1cnc[nH]1 | Ebola virus Zaire | pseudovirus entry | A549 |  | relative to: CC50 over IC50 | selectivity index | 1
CN(C)C1CCCN(C(=O)c2ccc3cc[nH]c3c2)CC1 (stereo not drawn) | Lassa mammarenavirus | viral replication | Huh-7 | 10 µM, 72 h |  | remaining activity | 30%
O=C1c2c(O)c(=O)ccn2N([C@@H]2c3ccccc3SCc3c2ccc(F)c3F)[C@@H]2COCCN12 | Influenza A virus | viral replication | A(H9N2) | mean |  | EC50 | 0.00037 ± 4e-05 µM
Cc1cccc(CN2CCN(C(c3ccccc3)c3ccc(Cl)cc3)CC2)c1 (stereo not drawn) | Marburg virus | HIV/MARV pseudovirion entry | A549 | 48 h |  | IC50 | 10.2 ± 3.7 µM
CCCCOc1cc(C(=O)NCCN(CC)CC)c2ccccc2n1 | SARS-CoV-2 | viral replication, GFP plate reader screen |  | cell-based |  | EC50 | 29.1 µM
CCc1c(C(=O)C(N)=O)c2c(OCC(=O)O)cccc2n1Cc1ccccc1 | Daboia russelii |  | mouse | intravenous, 120 µg/mouse, 24 h, drug mixture, added: KA venom 2.5 x LD50 preincubated |  | survival | 0%
CC1CCN(CCCNC(=O)c2cc(Sc3ccc(F)cc3)nc3ccccc23)CC1 | SARS-CoV-2 | cytopathic effect | USA_WA1/2020 | retest 8-point |  | efficacy | 65.9%
O=C(Nc1nc(-c2ccccc2)cs1)C1CCCC1 | Histoplasma capsulatum | microbial growth |  |  |  | MIC | > 20 µM
O=C(c1ccc(F)cc1)C1CCN(CCCn2c(=O)[nH]c3cc(Cl)ccc32)CC1 | SARS-CoV-2 | viral replication, GFP plate reader screen |  | cell-based |  | EC50 | > 100 µM
O=C(O[C@@H]1Cc2c(O)cc(O)cc2O[C@@H]1c1cc(O)c(O)c(O)c1)c1cc(O)c(O)c(O)c1 | Severe acute respiratory syndrome coronavirus 2 | cytopathic effect, inhibitor | Vero C1008 | 12.5 µM |  | inhibition | 0%
CC[C@H](C)[C@H](NC(=O)[C@H](CC(C)C)NC(=O)[C@H](Cc1c[nH]c2ccccc12)NC(=O)[C@H](CCC(N)=O)NC(=O)[C@@H](NC(=O)[C@H](Cc1ccccc1)NC(=O)[C@H](C)NC(=O)[C@H](CCCCNC(=O)COCCOCCNC(=O)COCCOCCNC(=O)CC[C@H](NC(=O)CCCCCCCCCCCCCCCCCCC(=O)O)C(=O)O)NC(=O)[C@H](CCC(N)=O)NC(=O)[C@H](C)NC(=O)[C@@H](NC(=O)[C@H](CCCCN)NC(=O)[C@H](CC(=O)O)NC(=O)[C@H](CC(C)C)NC(=O)C(C)(C)NC(=O)[C@@H](NC(=O)[C@H](CO)NC(=O)[C@H](Cc1ccc(O)cc1)NC(=O)[C@H](CC(=O)O)NC(=O)[C@H](CO)NC(=O)[C@@H](NC(=O)[C@H](Cc1ccccc1)NC(=O)[C@@H](NC(=O)CNC(=O)[C@H](CCC(=O)O)NC(=O)C(C)(C)NC(=O)[C@@H](N)Cc1ccc(O)cc1)[C@@H](C)O)[C@@H](C)O)[C@@H](C)CC)[C@@H](C)CC)C(C)C)C(=O)N[C@@H](C)C(=O)NCC(=O)NCC(=O)N1CCC[C@H]1C(=O)N[C@@H](CO)C(=O)N[C@@H](CO)C(=O)NCC(=O)N[C@@H](C)C(=O)N1CCC[C@H]1C(=O)N1CCC[C@H]1C(=O)N1CCC[C@H]1C(=O)N[C@@H](CO)C(N)=O |  | measured: blood glucose ≤70 mg/dL | healthy subjects | 4.5 mg, multiple ascending dose |  | subjects with hypoglycaemia | 33.3%
COc1cc(Br)c2oc(C3CCNCC3)cc2c1 | SARS-CoV-2 | viral replication, high-content imaging screen |  | cell-based |  | EC50 | > 100 µM
O=C(Nc1cccc(Cl)c1)C1CCCN(Cc2cccc(-c3ccc(F)cc3F)c2)C1 (stereo not drawn) | SARS-CoV-2 | cytopathic effect, cell-based CPE | USA_WA1/2020 | round 1, 5-point dilution |  | AC50 | 12.6 µM

Compound | tested on | test | test system | setting | how to read | quantity | value
CCC(NC(=O)c1cc(-c2ccccc2O)n[nH]1)c1cc(C)ccn1 (stereo not drawn) | Lassa mammarenavirus | viral replication | Huh-7 | 10 µM, 72 h |  | remaining activity | 36%
COc1ccc2c(Sc3ccccc3)c(C(=O)NCCCN3CCCCC3)[nH]c2c1 | SARS-CoV-2 | cytopathic effect | USA_WA1/2020 | round 2, 5-point |  | maximum response | 83.3%
O=C(CCC1CCN(C(=O)CC2=CCCCC2)CC1)N1CCC(Cc2ccccc2)CC1 | Lassa mammarenavirus | viral replication | Huh-7 | 10 µM, 72 h |  | remaining activity | 42%
COc1cc2c(N3CCN(C(=O)Nc4ccc(OC(C)C)cc4)CC3)ncnc2cc1OCCCN1CCCCC1 | SARS-CoV-2 | viral replication, GFP plate reader screen |  | cell-based |  | EC50 | > 100 µM
CNc1nc(N)ncc1-c1cn([C@@H]2O[C@H](CO[P@@](=O)(N[C@@H](C)C(=O)OC(C)C)Oc3ccccc3)[C@@H](O)[C@@]2(C)F)cn1 | Nipah virus |  |  | concentration not given |  | antiviral activity | inactive
COc1ccc(CC(=O)NC2CCN(Cc3ccc(-c4ccccc4OC)cc3)C2)cc1 (stereo not drawn) | SARS-CoV-2 | cytopathic effect | USA_WA1/2020 | retest, 8-point, duplicates |  | efficacy | 44.2%
COc1ccc(C[C@@H]2c3cc(Oc4cc(C[C@@H]5c6cc(O)c(OC)cc6CCN5C)ccc4O)c(OC)cc3CCN2C)cc1 | SARS-CoV-2 | viral cytopathic effect | Vero E6 | 3.125 µM |  | mean inhibition | 0%
CCCCCCCCCCCCCCNC(=O)CP(=O)(O)O | Bacillus anthracis |  | Ames/IA |  |  | MIC90 | 6.25 µg/mL (≈ 18.6 µM)
Oc1ccccc1-c1nc(-c2cccs2)c(-c2cccs2)[nH]1 | SARS-CoV-2 | cytopathic effect | USA_WA1/2020 | retest, 8-point, duplicates |  | maximum response | 11.5%
Cc1cc2nc3c(=O)[nH]c(=O)nc-3n(C[C@H](O)[C@H](O)[C@H](O)CO)c2cc1C | SARS-CoV-2 | viral replication, high-content imaging screen |  | cell-based |  | EC50 | > 50.1 µM
Cc1ccc(C(C)Nc2nc(N3CCNCC3)nc3ccccc23)cc1 (stereo not drawn) | SARS-CoV-2 | cytopathic effect | USA_WA1/2020 | retest 8-point |  | efficacy | 92.4%
Cc1c(NCc2ccccn2)cccc1C(=O)N1Cc2ccccc2C1 | Lassa mammarenavirus | viral replication | Huh-7 | 10 µM, 72 h |  | remaining activity | 39%
Cc1ccccc1C(=O)Nc1ccc(N2CCN(C(=O)c3cnccn3)CC2)nc1 | Mycobacterium tuberculosis | bacterial growth | H37Ra-lux | 168 h |  | IC90 | 3.82 µM
Cc1ccccc1CN1CCN(CCOC(c2ccccc2)c2ccccc2Cl)CC1 (stereo not drawn) | SARS-CoV-2 | viral replication, high-content imaging screen |  | cell-based |  | EC50 | > 25.1 µM
O=C(Nc1ccc(N2CCCN(C(=O)c3cnccn3)CC2)nc1)c1ccccc1 | Mycobacterium tuberculosis | bacterial growth | H37Ra-lux | 168 h |  | IC90 | > 64 µM
Cc1cc(N2Cc3cnn(CCO)c3C2)c2cc3c(cc2n1)OCO3 | Lassa mammarenavirus | viral replication | Huh-7 | 10 µM, 72 h |  | remaining activity | 41%
Nc1ncnc2c([C@@H]3N[C@H](CO)[C@@H](O)[C@H]3O)c[nH]c12 | Marburg virus |  | HeLa, Musoke | 3.1 µM, 1 h |  | viral RNA copies | 1.42e+07 copies/mL
CCCN(CCC)CCCNC(=O)C1CCCN(Cc2nc(-c3ccc(Cl)cc3)oc2C)C1 (stereo not drawn) | SARS-CoV-2 | cytopathic effect | USA_WA1/2020 | retest 8-point |  | efficacy | 87.6%
CCC(CC)COC(=O)[C@H](C)N[P@](=O)(OC[C@H]1O[C@@](C#N)(c2ccc3c(N)ncnn23)[C@H](O)[C@@H]1O)Oc1ccccc1 | SARS-CoV-2 replicon | N-HiBiT luminescence | HeLa | 0.02 µM | relative to: DMSO | replicon activity | 116% and 94.5% and 122% and 100% and 155%

A few entries again:
Compound | tested on | test | test system | setting | how to read | quantity | value
COc1ccc2c(Sc3ccccc3)c(C(=O)NCCCN3CCCCC3)[nH]c2c1 | SARS-CoV-2 | cytopathic effect | USA_WA1/2020 | round 2, 5-point |  | maximum response | 83.3%
O=C(CCC1CCN(C(=O)CC2=CCCCC2)CC1)N1CCC(Cc2ccccc2)CC1 | Lassa mammarenavirus | viral replication | Huh-7 | 10 µM, 72 h |  | remaining activity | 42%
